Published values of several laboratories.
Each numbered part is a random draw from the data of one study; scales do not carry over between parts. “And” joins repeats or separate records; there may be more than shown.

Block 1 — method: protein binding microarray; molecule type: double-stranded DNA, one strand shown; matrix: in vitro; tested at: not given; baseline: not given; reading: higher = stronger binding
Target: Histone acetyltransferase KAT6A, both winged helices, GST fusion (KAT6A, Homo sapiens, UniProt Q92794, residues 1-181)
Setting: 8-mer, flanks averaged, mean of 2 arrays, mostly near background
Residues (chain): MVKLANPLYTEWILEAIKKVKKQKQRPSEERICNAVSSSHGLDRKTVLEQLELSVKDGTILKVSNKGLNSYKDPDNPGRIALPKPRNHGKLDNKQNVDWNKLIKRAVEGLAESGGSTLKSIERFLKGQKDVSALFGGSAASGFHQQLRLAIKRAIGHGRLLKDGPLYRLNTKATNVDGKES
Strand | E-score
AGCCGGGG | 0.0611
AACCGACA | 0.0683
AGTGCGAT | 0.0568
AGGTCCTG | -0.113
AGGGAAGC | -0.0209
CCAACACA | -0.168
ATTTATTG | -0.0364
TGACCAAA | -0.0623
GCTGGACA | -0.133
CGCTACAA | 0.0903
CATGCTTA | -0.0933
CAATGATC | -0.0431

Block 2 — method: Spec-seq; molecule type: double-stranded DNA, one strand shown; matrix: in vitro; tested at: not given; setting: whole probe, mean of replicates; baseline: not given; reading: lower = stronger binding; all sequences stand within: GAGTCGTCTCGTCAGCAC … CCGTAGAGCACTCAGGTC
Target: POU, POU domain (Salpingoeca helianthica)
Target sequence (chain): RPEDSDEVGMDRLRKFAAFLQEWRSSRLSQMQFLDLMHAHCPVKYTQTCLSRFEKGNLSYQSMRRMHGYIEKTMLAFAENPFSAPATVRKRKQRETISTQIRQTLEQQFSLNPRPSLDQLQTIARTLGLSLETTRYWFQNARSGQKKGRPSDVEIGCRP
Strand | relative binding energy
ATAAGAAT | 1.12 ln ratio
CCGTTAAT | -0.279 ln ratio
ATGCAGAG | 1.28 ln ratio
GCTATAAT | 0.208 ln ratio
ATGCAACG | 1.28 ln ratio
ATTCAAAT | 1.07 ln ratio
CATGTAAT | 0.39 ln ratio
AATGTAAT | 0.451 ln ratio
ATGCAGCA | 1.21 ln ratio

Block 3 — method: protein-binding microarray; molecule type: double-stranded DNA, one strand shown; matrix: in vitro; tested at: 2540 nM top; setting: 60-bp whole probe; with: salmon DNA 0.4 mg/ml; baseline: random background probes; reading: higher = stronger binding; all sequences stand within: GCCTAGCAC … GTCTTGATTCGCTTGACGCTGCTG
Target: Interferon regulatory factor 3, full length, phosphomimetic (IRF3, Homo sapiens, UniProt Q14653, residues 1-427, S386D/S396D/S398D/S402D/T404D/S405D)
UniProt Q14653, sequence (whole entry, unmodified, looked up): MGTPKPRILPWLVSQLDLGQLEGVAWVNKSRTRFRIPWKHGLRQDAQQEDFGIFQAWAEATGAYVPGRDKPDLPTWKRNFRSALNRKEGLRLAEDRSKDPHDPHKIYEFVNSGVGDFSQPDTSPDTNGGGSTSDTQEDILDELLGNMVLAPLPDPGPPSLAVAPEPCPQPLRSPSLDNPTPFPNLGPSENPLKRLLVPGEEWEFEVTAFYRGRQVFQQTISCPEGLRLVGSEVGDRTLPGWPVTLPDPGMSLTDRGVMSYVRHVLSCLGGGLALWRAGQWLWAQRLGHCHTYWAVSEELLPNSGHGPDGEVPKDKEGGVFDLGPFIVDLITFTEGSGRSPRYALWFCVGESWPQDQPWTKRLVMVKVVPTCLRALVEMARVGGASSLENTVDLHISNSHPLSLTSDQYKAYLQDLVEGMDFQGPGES
Strand | fitted relative affinity
GACGGTATCGGACTGGGTACGTGCTAG | 1.64 z-score
TTAGATATCAGTTTAGATTAGTGCTAG | 1.84 z-score
TTAGGTTTAGGGTTTCGGTTAGTGCTA | 2.34 z-score
AGTGGGGAGGGAGAGAATCCGTGCTAG | -0.551 z-score
TTAGGTTTCGACACTGGTTTAGTGCTA | 2.65 z-score
GACGATATCAGAGTGGAGACGTGCTAG | 0.208 z-score
TTAGGGATCGACTATCGGTTAGTGCTA | -0.149 z-score

Single results of other studies
Substance | target | assay | test system | setting | how to read | measurement | value
PhoQ, residues 284 288 289 292 302 303 GASLAW | PhoP, residues 12 14 15 18 19 LWHSL (Escherichia coli, UniProt P23836) | Sort-seq, refers to: YFP reporter | E. coli | PhoQ-PhoP variant library, with: 10 µM Mg2+ | baseline: high Mg2+ state, higher = stronger signaling | fold induction | 29.2 and 12.3

Excerpt of the above (block 1):
Strand | E-score
TGACCAAA | -0.0623
CGCTACAA | 0.0903
GCTGGACA | -0.133
AGCCGGGG | 0.0611
